Experimental data gathered from unrelated publications.
Lines come from different studies, so protocols differ. ± gives the spread as reported.

Compound | tested on | test | system | setting | scale | quantity | value
Cc1cc(C(=O)NC(C)(C)COc2cccc3c2C(N)=NS(=O)(=O)N3)cc(C)n1 | Escherichia coli | Ames test, confirmatory | WP2 uvrA | 100 µg/plate, with: rat liver S9 | relative to: solvent control | revertant ratio | 1.2
CCOC(=O)C1=C(CN2CCC[C@@H]2C(=O)Nc2cccc(B(O)O)c2)NC(c2nccs2)=N[C@H]1c1ccc(F)cc1Br | hepatitis B virus | – | HepDES19 | – | relative to: CC50 over EC50 | selectivity index | 255
Fc1ccc(C2=CCNCC2)cc1 | Salmonella typhimurium | SOS response, SOS/umu test | TA1535/pSK1002, TGA medium | 0.001 mg/mL, 4 h, with: rat liver S9 | relative to: untreated | induction factor | 1.6
COc1cccc(-c2n[nH]c(SCc3ccccn3)n2)c1OC | Salmonella typhimurium | Ames test, plate incorporation | TA100 | 1.0 mg/plate, without S9 | – | revertant colonies per plate | 105
O=[N+]([O-])c1ccc(N2CCC(NCCC(O)c3ccc(F)c4ccccc34)CC2)c(C(F)(F)F)c1 (stereo not shown) | Salmonella typhimurium | SOS/umu test | TA1535/pSK1002 | 0.016 mg/mL, 4 h, without S9, full range | – | survival | 58.1%
CC(=O)N1CCC(C(=O)N2CCN3C(=O)c4cc(-c5ccccc5)ccc4NC(=O)C3C2)CC1 (stereo not shown) | Salmonella typhimurium | – | TA98 | 50 µg/plate, with: rat liver S9 | relative to: vehicle | fold increase in revertants | 1.1
CCc1ccc(Sc2cc(C(=O)NCCCN3CCC(C)CC3)c3ccccc3n2)cc1 | Vero-E6 | CellTiter-Glo ATP | – | concentration not given, 72 h, first round 5-point | relative to: DMSO 0%, hyamine -100%, more negative, more toxic | cytotoxicity efficacy | -18.6%
CCOC(=O)C1=C(CN2CCC[C@@H]2C(=O)Nc2ccc(B(O)O)cc2)NC(c2nccs2)=N[C@@H]1c1ccc(F)cc1Br | hepatitis B virus | – | HepDES19 | – | relative to: CC50 over EC50 | selectivity index | 11
[Cl-].[Cl-].[Pt+2].[Ru+2].c1ccc(-c2nc3ccccc3nc2-c2ccccn2)nc1.c1cnc2c(c1)ccc1cccnc12.c1cnc2c(c1)ccc1cccnc12 | Danio rerio | – | embryos | 30 µM, 96 h | – | hatching rate | 50 ± 5.4%
COc1ccccc1-c1cccc(CN2CCCC(C(=O)NCc3ccc(F)cc3)C2)c1 (stereo not shown) | Vero-E6 | CellTiter-Glo ATP | – | concentration not given, 72 h, first round 5-point | relative to: DMSO 0%, hyamine -100%, more negative, more toxic | cytotoxicity efficacy | -18.7%
O=[N+]([O-])c1ccc(N2CCN(CCC(O)c3ccc(F)cc3)CC2)c(C(F)(F)F)c1 (stereo not shown) | Salmonella typhimurium | genotoxicity, SOS/umu test | TA1535/pSK1002 | 0.016 mg/mL, 4 h, without S9, full range | – | induction factor | 1.7
[Cl-].[Cl-].[Pt+2].[Ru+2].c1ccc(-c2nccnc2-c2ccccn2)nc1.c1cnc2c(c1)ccc1cccnc12.c1cnc2c(c1)ccc1cccnc12 | Danio rerio | – | embryos | 90 µM, 72 h | – | hatching rate | 0%
CNC(=O)c1c(N(C)N=O)ncn1C | Salmonella typhimurium | plate incorporation | TA100, water | 5000 µg/plate, without S9 | – | revertant colonies per plate | 192 ± 19
